Results from different studies.
Each line is one published result; not all experiments were run side by side. “And” joins repeats or separate records; there may be more than shown. ± gives the spread as reported.
B1: WWP2 C506A/C822S/C802S/C750S/C666S/C588S/C577S (Homo sapiens, UniProt O00308); N-terminal Cy5 label; sequence looked up; chain MASASSSRAGVALPFEKSQLTLKVVSAKPKVHNRQPRINSYVEVAVDGLPSETKKTGKRIGSSELLWNEIIILNVTAQSHLDLKVWSCHTLRNELLGTASVNLSNVLKNNGGKMENMQLTLNLQTENKGSVVSGGELTIFLDGPTVDLGNVPNGSALTDGSQLPSRDSSGTAVAPENRHQPPSTNCFGGRSRTHRHSGASARTTPATGEQSPGARSRHRQPVKNSGHSGLANGTVNDEPTTATDPEEPSVVGVTSPPAAPLSVTPNPNTTSLPAPATPAEGEEPSTSGTQQLPAAAQAPDALPAGWEQRELPNGRVYYVDHNTKTTTWERPLPPGWEKRTDPRGRFYYVDHNTRTTTWQRPTAEYVRNYEQWQSQRNQLQGAMQHFSQRFLYQSSSASTDHDPLGPLPPGWEKRQDNGRVYYVNHNTRTTQWEDPRTQGMIQEPALPPGWEMKYTSEGVRYFVDHNTRTTTFKDPRPGFESGTKQGSPGAYDRSFRWKYHQFRFLAHSNALPSHVKISVSRQTLFEDSFQQIMNMKPYDLRRRLYIIMRGEEGLDYGGIAREWFFLLSHEVLNPMYSLFEYAGKNNYSLQINPASSINPDHLTYFRFIGRFIAMALYHGKFIDTGFTLPFYKRMLNKRPTLKDLESIDPEFYNSIVWIKENNLEESGLELYFIQDMEILGKVTTHELKEGGESIRVTEENKEEYIMLLTDWRFTRGVEEQTKAFLDGFNEVAPLEWLRYFDEKELELMLSGMQEIDMSDWQKSTIYRHYTKNSKQIQWFWQVVKEMDNEKRIRLLQFVTGTSRLPVGGFAELIGSNGPQKFSIDKVGKETWLPRSHTCFNRLDLPPYKSYEQLREKLLYAIEETEGFGQE
B2: human corneodesmosin; sequence looked up; chain KSIGTFSDPCKDPTRITSPNDPCLTGKGDSSGFSSYSGSSSSGSSISSARSSGGGSSGSSSGSSIAQGGSAGSFKPGTGYSQVSYSSGSGSSLQGASGSSQLGSSSSHSGNSGSHSGSSSSHSSSSSSFQFSSSSFQVGNGSALPTNDNSYRGILNPSQPGQSSSSSQTFGVSSSGQSVSSNQRPCSSDIPDSPCSGGPIVSHSGPYIPSSHSVSGGQRPVVVVVDQHGSGAPGVVQGPPCSNGGLPGKPCPPITSVDKSYGGYEVVGGSSDSYLVPGMTYSKGKIYPVGYFTKENPVKGSPGVPSFAAGPPISEGKYFSSNPIIPSQSAASSAIAFQPVGTGGVQLCGGGSTGSKGPCSPSSSRVPSSSSISSSSGLPYHPCGSASQSPCSPPGTGSFSSSSSSQSSGKIILQPCGSKSSSSGHPCMSVSSLTLTGGPDGSPHPDPSAGAKPCGSSSAGKIPCRSIRDILAQVKPLGPQLADPEVFLPQGELLNSP
B3: LMNA 389-572 (Homo sapiens, UniProt P02545-2); sequence looked up; chain LSPSPTSQRSRGRASSHSSQTQGGGSVTKKRKLESTESRSSFSQHARTSGRVAVEEVDEEGKFVRLRNKSNEDQSMGNWQIKRQNGDDPLLTYRFPPKFTLKAGQVVTIWAAGAGATHSPPTDLVWKAQNTWGCGNSLRTALINSTGEEVAMRKLVRSVTVVEDDEDEDGDDLLHHHHVSGSRR
B4: EFR3B 716-787 (Homo sapiens, UniProt Q9Y2G0); chain VPAEEITYETLKKAIVDSVAVEEQERERRRQVVEKFQKAPFEEIAAHCGARASLLQSKLNQIFEITIRPPPS
B5: NRP1 (Arabidopsis thaliana); chain MVADKSKKSKIEEKGEEENLEQIDAELVLSIEKLQEIQDDLEKINEKASDEVLEVEQKYNVIRKPVYDKRNEVIQSIPGFWMTAFLSHPALGDLLTEEDQKIFKYLNSLEVEDAKDVKSGYSITFHFTSNPFFEDAKLTKTFTFLEEGTTKITATPIKWKEGKGLPNGVNHDDKKGNKRALPEESFFTWFTDAQHKEDAGDEIHDEVADIIKEDLWSNPLTYFNNDADEEDFDGDDDGDEEGEEDDDDEEEEDGEE
B6: designed binder (Homo sapiens); chain MASAARLTMMWEEVTCPICLDPFVEPVSIECGHSFCQECISQVGKGGGSVCPVCRQRFLLKNLRPNRQLANMVNNLKEISQEAREGTQGERCAVHGERLHLFCEKDGKALCWVCAQSRKHRDHAMVPLEEAAQEYQEKLQVALGELRRKQELAEKLEVEIAIKRADWKKTVETQKSRIHAEFVQQKNFLVEEEQRQLQELEKDEREQLRILGEKEAKLAQQSQALQELISELDRRCHSSALELLQEVIIVLERSESWNLKDLDITSPELRSVCHVPGLKKMLRTCAGGGGSGGGGSGGGGSRLDAPSTIAVYRVSYTYAIIYWYSPLAEIDGFELTYGIKDVPGDRTTIKLTEDDGHYVIRHLKPDTEYEVSLISRRGDMSSNPAKITFKTGL
B7: AXIN1 383-506 (Homo sapiens, UniProt O15169-2); HiLyte488 label; sequence looked up; chain VEPQKFAEELIHRLEAVQRTREAEEKLEERLKRVRMEEEGEDGDPSSGPPGPCHKLPPAPAWHHFPPRCVDMGCAGLRDAHEENPESILDEHVQRVLRTPGRQSPGPGHRSPDSGHVAKMPVAL
B8: VCL 1-252 (Homo sapiens, UniProt P18206); sequence looked up; chain MPVFHTRTIESILEPVAQQISHLVIMHEEGEVDGKAIPDLTAPVAAVQAAVSNLVRVGKETVQTTEDQILKRDMPPAFIKVENACTKLVQAAQMLQSDPYSVPARDYLIDGSRGILSGTSDLLLTFDEAEVRKIIRVCKGILEYLTVAEVVETMEDLVTYTKNLGPGMTKMAKMIDERQQELTHQEHRVMLVNSMNTVKELLPVLISAMKIFVTTKNSKNQGIEEALKNRNFTVEKMSAEINEIIRVLQLTS
B9: GP1BA ligand-binding domain 17-306 (Homo sapiens, UniProt P07359); RED-NHS dye label; sequence looked up; chain HPICEVSKVASHLEVNCDKRNLTALPPDLPKDTTILHLSENLLYTFSLATLMPYTRLTQLNLDRCELTKLQVDGTLPVLGTLDLSHNQLQSLPLLGQTLPALTVLDVSFNRLTSLPLGALRGLGELQELYLKGNELKTLPPGLLTPTPKLEKLSLANNNLTELPAGLLNGLENLDTLLLQENSLYTIPKGFFGSHLLPFAFLHGNPWLCNCEILYFRRWLQDNAENVYVWKQGVDVKAMTSNVASVQCDNSDKFPVYKYPGKGCPTLGDEGDTDLYDYYPEEDTEGDKVR
B10: Mena EVH1 1-113 (Homo sapiens, UniProt Q8N8S7); chain MSEQSICQARAAVMVYDDANKKWVPAGGSTGFSRVHIYHHTGNNTFRVVGRKIQDHQVVINCAIPKGLKYNQATQTFHQWRDARQVYGLNFGSKEDANVFASAMMHALEVLNS
B11: human DDX5; sequence looked up; chain MSGYSSDRDRGRDRGFGAPRFGGSRAGPLSGKKFGNPGEKLVKKKWNLDELPKFEKNFYQEHPDLARRTAQEVETYRRSKEITVRGHNCPKPVLNFYEANFPANVMDVIARQNFTEPTAIQAQGWPVALSGLDMVGVAQTGSGKTLSYLLPAIVHINHQPFLERGDGPICLVLAPTRELAQQVQQVAAEYCRACRLKSTCIYGGAPKGPQIRDLERGVEICIATPGRLIDFLECGKTNLRRTTYLVLDEADRMLDMGFEPQIRKIVDQIRPDRQTLMWSATWPKEVRQLAEDFLKDYIHINIGALELSANHNILQIVDVCHDVEKDEKLIRLMEEIMSEKENKTIVFVETKRRCDELTRKMRRDGWPAMGIHGDKSQQERDWVLNEFKHGKAPILIATDVASRGLDVEDVKFVINYDYPNSSEDYIHRIGRTARSTKTGTAYTFFTPNNIKQVSDLISVLREANQAINPKLLQLVEDRGSGRSRGRGGMKDDRRDRYSAGKRGGFNTFRDRENYDRGYSSLLKRDFGAKTQNGVYSAANYTNGSFGSNFVSAGIQTSFRTGNPTGTYQNGYDSTQQYGSNVPNMHNGMNQQAYAYPATAAAPMIGYPMPTGYSQ
B12: UPF2 761-1227 (Homo sapiens, UniProt Q9HAU5); sequence looked up; chain EKTVKKKRPPLQEYVRKLLYKDLSKVTTEKVLRQMRKLPWQDQEVKDYVICCMINIWNVKYNSIHCVANLLAGLVLYQEDVGIHVVDGVLEDIRLGMEVNQPKFNQRRISSAKFLGELYNYRMVESAVIFRTLYSFTSFGVNPDGSPSSLDPPEHLFRIRLVCTILDTCGQYFDRGSSKRKLDCFLVYFQRYVWWKKSLEVWTKDHPFPIDIDYMISDTLELLRPKIKLCNSLEESIRQVQDLEREFLIKLGLVNDKDSKDSMTEGENLEEDEEEEEGGAETEEQSGNESEVNEPEEEEGSDNDDDEGEEEEEENTDYLTDSNKENETDEENTEVMIKGGGLKHVPCVEDEDFIQALDKMMLENLQQRSGESVKVHQLDVAIPLHLKSQLRKGPPLGGGEGEAESADTMPFVMLTRKGNKQQFKILNVPMSSQLAANHWNQQQAEQEERMRMKKLTLDINERQEQED
B13: Ncoa1 260-369 (Mus musculus, UniProt P70365); sequence looked up; chain ESFMTKQDTTGKIISIDTSSLRAAGRTGWEDLVRKCIYAFFQPQGREPSYARQLFQEVMTRGTASSPSYRFILNDGTMLSAHTKCKLCYPQSPDMQPFIMGIHIIDREHS
Chain of UniProt A0A0D1DWZ5 (whole entry, looked up): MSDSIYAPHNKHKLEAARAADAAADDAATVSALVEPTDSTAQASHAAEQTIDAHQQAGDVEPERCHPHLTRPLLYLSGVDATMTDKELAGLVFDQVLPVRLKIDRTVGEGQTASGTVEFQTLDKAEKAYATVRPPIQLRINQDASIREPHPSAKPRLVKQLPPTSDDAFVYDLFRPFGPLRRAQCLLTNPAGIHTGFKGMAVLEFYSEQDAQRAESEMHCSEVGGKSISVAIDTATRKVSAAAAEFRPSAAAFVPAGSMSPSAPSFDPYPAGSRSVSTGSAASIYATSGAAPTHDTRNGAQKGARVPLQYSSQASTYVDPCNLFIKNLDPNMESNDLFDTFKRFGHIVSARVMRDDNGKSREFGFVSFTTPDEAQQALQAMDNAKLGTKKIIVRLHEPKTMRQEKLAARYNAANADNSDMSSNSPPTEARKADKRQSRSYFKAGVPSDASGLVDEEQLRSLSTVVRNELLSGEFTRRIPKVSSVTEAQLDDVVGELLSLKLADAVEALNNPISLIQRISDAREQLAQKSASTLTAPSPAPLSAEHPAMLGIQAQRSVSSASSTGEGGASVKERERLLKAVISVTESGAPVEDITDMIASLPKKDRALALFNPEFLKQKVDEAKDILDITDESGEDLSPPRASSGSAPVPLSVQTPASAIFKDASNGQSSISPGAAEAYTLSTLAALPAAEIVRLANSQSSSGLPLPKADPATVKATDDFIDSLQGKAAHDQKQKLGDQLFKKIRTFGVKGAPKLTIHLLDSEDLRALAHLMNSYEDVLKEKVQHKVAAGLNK
Chain of UniProt O75530 (whole entry, looked up): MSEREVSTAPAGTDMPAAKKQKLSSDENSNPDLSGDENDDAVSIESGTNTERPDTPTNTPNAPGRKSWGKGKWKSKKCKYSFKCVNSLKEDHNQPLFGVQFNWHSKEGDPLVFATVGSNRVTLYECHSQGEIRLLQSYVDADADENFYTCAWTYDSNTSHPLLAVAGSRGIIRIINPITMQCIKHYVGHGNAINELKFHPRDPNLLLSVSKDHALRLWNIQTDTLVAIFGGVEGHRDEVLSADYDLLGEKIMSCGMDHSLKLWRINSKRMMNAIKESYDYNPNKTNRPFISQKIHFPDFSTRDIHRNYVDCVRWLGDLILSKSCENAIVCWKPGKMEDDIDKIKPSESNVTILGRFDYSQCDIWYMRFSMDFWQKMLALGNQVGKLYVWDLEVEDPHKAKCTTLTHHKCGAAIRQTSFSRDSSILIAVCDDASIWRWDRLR
Chain of UniProt Q9WV60 (whole entry, looked up): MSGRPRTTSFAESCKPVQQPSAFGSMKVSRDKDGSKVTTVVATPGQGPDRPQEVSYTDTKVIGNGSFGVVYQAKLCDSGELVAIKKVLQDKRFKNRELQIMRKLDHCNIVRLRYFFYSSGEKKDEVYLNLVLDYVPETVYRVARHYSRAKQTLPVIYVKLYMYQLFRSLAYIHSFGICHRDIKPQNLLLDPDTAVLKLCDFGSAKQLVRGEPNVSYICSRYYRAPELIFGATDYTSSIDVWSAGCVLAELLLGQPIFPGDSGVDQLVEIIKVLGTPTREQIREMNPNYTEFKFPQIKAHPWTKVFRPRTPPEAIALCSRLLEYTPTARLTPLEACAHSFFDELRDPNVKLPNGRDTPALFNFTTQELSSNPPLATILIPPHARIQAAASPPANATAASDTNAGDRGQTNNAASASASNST
Chain of UniProt Q8IXW5 (whole entry, looked up): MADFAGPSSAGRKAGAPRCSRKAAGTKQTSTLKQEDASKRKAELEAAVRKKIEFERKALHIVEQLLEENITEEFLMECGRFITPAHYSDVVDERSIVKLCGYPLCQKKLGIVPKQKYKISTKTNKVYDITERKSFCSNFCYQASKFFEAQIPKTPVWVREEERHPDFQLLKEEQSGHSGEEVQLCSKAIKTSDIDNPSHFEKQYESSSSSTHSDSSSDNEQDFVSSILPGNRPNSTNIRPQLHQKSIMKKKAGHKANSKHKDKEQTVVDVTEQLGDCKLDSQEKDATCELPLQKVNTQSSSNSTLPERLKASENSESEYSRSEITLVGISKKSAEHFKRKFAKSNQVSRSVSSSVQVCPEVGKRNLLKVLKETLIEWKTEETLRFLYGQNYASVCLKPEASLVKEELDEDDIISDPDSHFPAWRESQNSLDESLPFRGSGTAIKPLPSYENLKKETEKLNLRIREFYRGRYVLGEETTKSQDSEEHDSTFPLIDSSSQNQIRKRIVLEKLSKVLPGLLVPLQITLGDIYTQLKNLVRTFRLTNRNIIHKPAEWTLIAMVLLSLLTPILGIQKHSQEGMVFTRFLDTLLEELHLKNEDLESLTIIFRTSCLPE
Chain of UniProt O95619 (whole entry, looked up): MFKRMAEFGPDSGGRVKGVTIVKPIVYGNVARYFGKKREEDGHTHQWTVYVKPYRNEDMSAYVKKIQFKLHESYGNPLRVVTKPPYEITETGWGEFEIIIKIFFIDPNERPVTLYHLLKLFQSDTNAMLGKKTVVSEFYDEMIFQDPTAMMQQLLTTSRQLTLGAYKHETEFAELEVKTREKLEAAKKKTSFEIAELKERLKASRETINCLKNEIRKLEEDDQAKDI
Chain of UniProt Q9BZI7 (whole entry, looked up): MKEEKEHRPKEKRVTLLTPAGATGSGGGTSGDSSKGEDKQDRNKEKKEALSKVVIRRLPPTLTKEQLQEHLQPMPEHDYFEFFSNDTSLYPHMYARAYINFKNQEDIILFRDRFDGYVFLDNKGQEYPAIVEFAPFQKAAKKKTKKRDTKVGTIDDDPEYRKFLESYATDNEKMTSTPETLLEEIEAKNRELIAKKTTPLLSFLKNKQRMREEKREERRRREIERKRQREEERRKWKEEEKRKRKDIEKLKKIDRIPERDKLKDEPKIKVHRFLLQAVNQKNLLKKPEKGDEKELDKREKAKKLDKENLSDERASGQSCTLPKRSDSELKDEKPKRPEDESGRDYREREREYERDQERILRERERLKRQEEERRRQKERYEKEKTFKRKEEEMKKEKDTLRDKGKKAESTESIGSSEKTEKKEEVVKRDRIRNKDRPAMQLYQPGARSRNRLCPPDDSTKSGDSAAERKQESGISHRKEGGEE
Chain of UniProt P43354 (whole entry, looked up): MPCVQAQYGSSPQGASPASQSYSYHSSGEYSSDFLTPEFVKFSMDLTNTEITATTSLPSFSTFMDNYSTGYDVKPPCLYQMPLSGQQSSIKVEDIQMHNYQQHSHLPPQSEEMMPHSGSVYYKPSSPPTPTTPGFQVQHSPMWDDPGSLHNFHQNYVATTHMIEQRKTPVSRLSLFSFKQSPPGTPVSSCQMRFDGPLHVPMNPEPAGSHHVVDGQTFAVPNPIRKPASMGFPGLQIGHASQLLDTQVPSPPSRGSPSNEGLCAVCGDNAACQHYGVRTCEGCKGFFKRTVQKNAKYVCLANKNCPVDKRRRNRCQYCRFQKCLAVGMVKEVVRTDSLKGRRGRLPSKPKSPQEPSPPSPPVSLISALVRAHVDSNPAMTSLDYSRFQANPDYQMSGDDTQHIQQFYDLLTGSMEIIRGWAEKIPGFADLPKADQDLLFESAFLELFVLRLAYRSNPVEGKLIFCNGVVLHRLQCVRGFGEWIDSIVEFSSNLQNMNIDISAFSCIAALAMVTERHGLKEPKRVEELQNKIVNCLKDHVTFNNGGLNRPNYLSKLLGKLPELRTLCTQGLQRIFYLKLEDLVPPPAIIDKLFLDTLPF
Chain of UniProt P36956 (whole entry, looked up): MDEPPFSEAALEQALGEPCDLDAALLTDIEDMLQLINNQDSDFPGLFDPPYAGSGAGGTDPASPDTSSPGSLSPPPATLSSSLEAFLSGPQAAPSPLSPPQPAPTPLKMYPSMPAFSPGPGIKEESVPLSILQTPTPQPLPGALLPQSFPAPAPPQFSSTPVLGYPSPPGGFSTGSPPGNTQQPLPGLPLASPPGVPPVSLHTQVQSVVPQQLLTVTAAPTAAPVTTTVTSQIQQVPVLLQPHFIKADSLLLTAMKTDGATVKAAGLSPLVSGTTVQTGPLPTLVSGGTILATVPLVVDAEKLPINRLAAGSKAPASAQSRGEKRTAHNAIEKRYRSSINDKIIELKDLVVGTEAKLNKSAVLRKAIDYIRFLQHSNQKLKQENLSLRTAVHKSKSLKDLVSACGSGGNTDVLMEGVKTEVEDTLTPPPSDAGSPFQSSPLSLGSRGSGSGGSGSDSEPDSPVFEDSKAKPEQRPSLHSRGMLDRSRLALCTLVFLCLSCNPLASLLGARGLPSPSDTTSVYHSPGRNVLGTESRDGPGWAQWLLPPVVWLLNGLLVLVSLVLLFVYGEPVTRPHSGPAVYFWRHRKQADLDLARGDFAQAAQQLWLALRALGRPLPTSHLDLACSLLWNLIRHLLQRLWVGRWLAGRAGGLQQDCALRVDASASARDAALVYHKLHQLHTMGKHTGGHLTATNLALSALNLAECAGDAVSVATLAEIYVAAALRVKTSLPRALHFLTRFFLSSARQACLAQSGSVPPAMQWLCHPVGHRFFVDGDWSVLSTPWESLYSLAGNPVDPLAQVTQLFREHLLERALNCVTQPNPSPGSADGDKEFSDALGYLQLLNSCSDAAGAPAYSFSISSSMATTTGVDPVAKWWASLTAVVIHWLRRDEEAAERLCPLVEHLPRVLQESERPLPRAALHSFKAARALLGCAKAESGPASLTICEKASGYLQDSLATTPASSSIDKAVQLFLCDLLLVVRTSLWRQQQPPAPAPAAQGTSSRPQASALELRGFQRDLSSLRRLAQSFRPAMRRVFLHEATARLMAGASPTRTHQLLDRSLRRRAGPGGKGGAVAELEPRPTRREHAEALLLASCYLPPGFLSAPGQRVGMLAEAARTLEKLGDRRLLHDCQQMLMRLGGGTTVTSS
Chain of UniProt Q5BJF2 (whole entry, looked up): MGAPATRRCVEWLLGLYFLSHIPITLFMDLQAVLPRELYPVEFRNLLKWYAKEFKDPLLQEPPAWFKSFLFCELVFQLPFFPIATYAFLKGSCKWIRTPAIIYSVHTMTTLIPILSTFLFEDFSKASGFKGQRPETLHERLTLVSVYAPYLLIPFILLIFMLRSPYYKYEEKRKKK

Molecule	tested on	test	system	conditions	how to read	quantity	result
B1	UBE2L3 (Homo sapiens, UniProt P68036)	MST	–	–	–	Kd	322 ± 24 µM
GYRRKFAAAAASHREFPF (HTN1 residues 9-26 alanine substitutions at 15-19)	TMEM97 (Homo sapiens, UniProt Q5BJF2)	SPR	peptide	–	–	Kd	> 50 µM
B2 (human corneodesmosin)	PP6C (human)	co-immunoprecipitation, IP-MS	CYB5R4 knockout cells	concentration not given	reference: CYB5R4 knockout over parental	log2 fold change	0.29
B3 (LMNA 389-572)	SREBF1 227-487 (Homo sapiens, UniProt P36956)	ITC	–	–	–	Kd	0.063 µM
B4 (EFR3B 716-787)	TTC7B/FAM126B 1-308	BLI	–	–	–	Kd	0.000345 µM
B5 (NRP1)	H4 fragment (Xenopus laevis)	SPR	–	–	–	Kd	28.9 µM
KLLITIHDRKEFAKFEEERARAKWDTANNPLYKEATSTFTNITYRGT (ITGB3 742-788 (Homo sapiens, UniProt P05106); sequence looked up)	Tln2 312-408 Y376A (Mus musculus, UniProt Q71LX4)	NMR titration	–	–	–	Kd	898 µM
B6 (designed binder)	EED (Homo sapiens, UniProt O75530)	BLI	designed binder	–	–	Kd	> 3.8 µM
B7 (AXIN1 383-506)	Gsk3b 26-383 (Mus musculus, UniProt Q9WV60)	fluorescence polarisation	–	–	–	Kd	0.0027 µM
B8 (VCL 1-252)	Ctnna1 R551A (Mus musculus, UniProt P26231)	BLI	–	–	–	Kd	0.12 µM and 0.16 µM
B9	VWF fragment (Homo sapiens)	MST	–	–	–	Kd	0.0168 µM
Histone H3.1 fragment (Homo sapiens)	YEATS4 19-159 (Homo sapiens, UniProt O95619)	ITC	–	added: histone H3 peptide	–	Kd	> 1000 µM
B10 (Mena EVH1 1-113)	PTP1B, N-terminal 5-TAMRA (Homo sapiens)	fluorescence polarization	–	–	–	Kd	13 µM
FN1 (Homo sapiens, UniProt P02751)	FIBH fragment, N-terminal Alexa Fluor 488 (Bombyx mori)	FCS	–	–	–	Kd	0.00818 ± 0.00012 µM
DHEYVLTESFLDSGAFPNHDVIDHNKMLNSNYNGNGILNKGGVLGLVKEYYKKSDVGR (ATG9 940-997 (Saccharomyces cerevisiae, UniProt Q12142); sequence looked up)	ATG23 Y16E (Saccharomyces cerevisiae, UniProt Q06671)	BLI	–	–	–	Kd	1.72 µM
CDH23 fragment (Mus musculus) (sequence not shown)	PCDH15 fragment (Mus musculus)	SPR	–	–	–	Kd	3.6 ± 0.9 µM
B11 (human DDX5)	PP6C (human)	co-immunoprecipitation, IP-MS	CYB5R4 knockout cells	concentration not given	reference: CYB5R4 knockout over parental	log2 fold change	-1.34
SDLACRLLGQSMDESGLPQLTSYDCEVNAPIQGSRNLLQGEELLRALDQVN (HIF1A 776-826 (Homo sapiens, UniProt Q16665); sequence looked up)	Crebbp 340-439 (Mus musculus, UniProt P45481)	fluorescence polarisation	–	–	–	Kd	0.014 µM
F2 thrombin S195A	GP1BA 284-300 (UniProt P07359)	BLI	–	–	–	Kd	1.03 ± 0.05 µM
DEDAADDDDDEFIYPNSY (upa1 944-961 (Ustilago maydis, UniProt A0A0D1E015); sequence looked up)	rrm4 679-792 (Ustilago maydis, UniProt A0A0D1DWZ5)	ITC	peptide	–	–	Kd	5.7 µM
RPRD1A (Homo sapiens, UniProt Q96P16)	RPAP2 (Homo sapiens, UniProt Q8IXW5)	ITC	–	25 °C	–	Kd	447 µM
SQELHKLQTYPRTNTGSGTP (salmon calcitonin 13-32, N-terminal FITC-Ahx/C-terminal amide (Salmo salar); N-terminal FITC-Ahx/C-terminal amide)	RAMP2/CALCR extracellular domain 55-140 (Homo sapiens)	fluorescence polarization	peptide	–	–	Kd	1.7 µM
Cacng2 fragment (Mus musculus) (sequence not shown)	DLG4 PDZ1, pS73 (Homo sapiens)	ITC	–	–	–	Kd	40 µM
B12 (UPF2 761-1227)	UPF3B (Homo sapiens, UniProt Q9BZI7)	BLI	–	–	–	Kd	0.0399 µM
B13 (Ncoa1 260-369)	NR4A2 1-165 (Homo sapiens, UniProt P43354)	ITC	–	–	–	Kd	8.1 µM

For quick reference, copied from above:
Molecule	tested on	test	system	conditions	how to read	quantity	result
CDH23 fragment (Mus musculus) (sequence not shown)	PCDH15 fragment (Mus musculus)	SPR	–	–	–	Kd	3.6 ± 0.9 µM
B9	VWF fragment (Homo sapiens)	MST	–	–	–	Kd	0.0168 µM
Histone H3.1 fragment (Homo sapiens)	YEATS4 19-159 (Homo sapiens, UniProt O95619)	ITC	–	added: histone H3 peptide	–	Kd	> 1000 µM
